{"data": "Measurements collected from several papers", "inhA": "Enoyl-[acyl-carrier-protein] reductase [NADH] (inhA, Mycobacterium tuberculosis, UniProt P9WGR1)", "BCHE": "Cholinesterase (BCHE, Homo sapiens, UniProt P06276)", "ache": "Acetylcholinesterase (ache, Electrophorus electricus, UniProt O42275)", "cyp121": "Mycocyclosin synthase (cyp121, Mycobacterium tuberculosis, UniProt P9WPP7)", "note": "Protocols differ between the studies behind these lines. ± marks the error that the study gave."}
{"Structure (SMILES)": "Oc1cc(-c2cccnc2)ccc1Oc1ccc(Cl)cc1Cl", "target": "inhA", "test": "inhibitor", "measurement": "IC50", "value": "> 10 µM"}
{"Structure (SMILES)": "CC[C@H](C)[C@@H]1NC(=O)[C@H](Cc2c[nH]cn2)NC(=O)[C@H](Cc2ccc(O)cc2)NC(=O)[C@H](Cc2ccc(O)cc2)NC(=O)[C@H](C(C)C)NC(=O)[C@H](Cc2c[nH]cn2)NC(=O)[C@H](CCCCN)NC(=O)[C@H]([C@@H](C)O)NC(=O)[C@H](Cc2ccc(O)cc2)NC(=O)CSC[C@@H](C(N)=O)NC(=O)[C@H](Cc2ccc(O)cc2)NC(=O)[C@H](C(C)C)NC(=O)[C@H](CC(C)C)NC(=O)[C@H](Cc2ccc(O)cc2)NC(=O)[C@H]([C@@H](C)CC)NC(=O)[C@H]([C@@H](C)O)NC1=O", "target": "Procathepsin L (CTSL, Homo sapiens, UniProt P07711)", "test": "enzyme activity, inhibitor", "measurement": "IC50", "value": "5.7 ± 0.45 µM"}
{"Structure (SMILES)": "CC(C)CCc1ccc(Oc2ccc(Cl)cc2Cl)c(O)c1", "target": "inhA", "test": "inhibitor", "measurement": "IC50", "value": "0.063 ± 0.009 µM"}
{"Structure (SMILES)": "c1ccc2c(c1)ccc[n+]2CCCCCCCCCC[n+]1cccc2ccccc21", "target": "BCHE", "test": "enzyme activity, inhibitor", "measurement": "IC50", "value": "0.1 ± 0.02 µM"}
{"Structure (SMILES)": "NCCCC[C@H](NC(=O)OCC1c2ccccc2-c2ccccc21)C(=O)Nc1ccc2c(Cl)c(OCCBr)oc(=O)c2c1", "target": "hip1 (Mycobacterium tuberculosis, UniProt P9WHR3)", "test": "protease activity, inhibitor, chemiluminescence", "measurement": "IC50", "value": "0.27 µM"}
{"Structure (SMILES)": "CN(C(=O)Cc1ccc(Cl)c(Cl)c1)C1CCCCC1N1CCCC1 (stereo not shown)", "target": "PKD2L1 (Homo sapiens, UniProt Q9P0L9, F514A)", "test": "tail current, inhibitor, automated patch clamp", "conditions": "mutant F514A", "measurement": "IC50", "value": "1 µM"}
{"Structure (SMILES)": "c1cc(C2CCNCC2)c2ccncc2c1", "target": "ache", "test": "enzyme activity, inhibitor, Ellman", "conditions": "10 min preincubation, pH 8, 23 °C", "measurement": "IC50", "value": "220 ± 10 µM"}
{"Structure (SMILES)": "CC(C)(C)O[C@@H]1C[C@@H](C(=O)N[C@H](Cc2ccccc2)C(=O)C(=O)NCc2ccc(Cl)cn2)N(C(=O)[C@@H](NC(=O)C2CCC(F)(F)CC2)C2CCCCC2)C1", "target": "TMPRSS2 (Homo sapiens, UniProt O15393, Q253D/R252D/R255K/S251D/S254D)", "test": "enzyme activity, inhibitor", "measurement": "IC50", "value": "> 500 µM"}
{"Structure (SMILES)": "N#Cc1ccc(-c2ccc(COCCc3ccc(-c4nc5cc(-c6ccccc6)ccn5c4Nc4ccc(C(=O)O)cc4)cc3)cc2)nc1", "target": "TDP2 (Homo sapiens, UniProt O95551)", "test": "enzyme activity, inhibitor", "measurement": "IC50", "value": "> 100 µM"}
{"Structure (SMILES)": "O=C(O)c1ccc(-c2ccc([N+](=O)[O-])cc2Cl)o1", "target": "mbtI (Mycobacterium tuberculosis, UniProt P9WFX1)", "test": "enzyme activity, inhibitor", "measurement": "IC50", "value": "17.9 ± 3.2 µM"}
{"Structure (SMILES)": "c1cc[n+](CCCCCCCCCC[n+]2cccc3ccccc32)cc1", "target": "BCHE", "test": "enzyme activity, inhibitor", "measurement": "IC50", "value": "3.2 ± 0.5 µM"}
{"Structure (SMILES)": "C#CCOc1ccc2cc(OCC#C)c(C(=O)O)cc2c1", "target": "ptpB (Mycobacterium tuberculosis, UniProt I6WXK4)", "test": "inhibitor", "conditions": "pH 7", "measurement": "IC50", "value": "50 µM"}
{"Structure (SMILES)": "CC(c1ccc2c(c1)Cc1cc(O)ccc1-2)n1ccnc1 (stereo not shown)", "target": "cyp121", "test": "binding", "measurement": "Kd", "value": "5.3 ± 0.68 µM"}
{"Structure (SMILES)": "Cc1cccc(-c2ccc(Oc3ccc(Cl)cc3Cl)c(O)c2)c1", "target": "inhA", "test": "inhibitor", "measurement": "IC50", "value": "0.87 ± 0.11 µM"}
{"Structure (SMILES)": "O=c1c2ccccc2[nH]c(=S)n1Cc1cccnc1", "target": "4'-phosphopantetheinyl transferase PptT (Mycobacterium tuberculosis, UniProt O33336)", "test": "enzyme activity, inhibitor, fluorescence polarization", "measurement": "IC50", "value": "0.79 µM"}
{"Structure (SMILES)": "Cc1ccccc1-c1ccc(Oc2ccc(Cl)cc2Cl)c(O)c1", "target": "inhA", "test": "inhibitor", "measurement": "IC50", "value": "1.3 ± 0.077 µM"}
{"Structure (SMILES)": "C(=C\\CN1CCc2sccc2C1)/CN1CCc2sccc2C1", "target": "ache", "test": "enzyme activity, inhibitor, Ellman", "conditions": "10 min preincubation, pH 8, 23 °C", "measurement": "IC50", "value": "331 ± 8 µM"}
{"Structure (SMILES)": "COc1ccc(-c2ccc(Cn3ccnc3)c3ccccc23)cc1", "target": "cyp121", "test": "binding", "measurement": "Kd", "value": "1.3 ± 0.11 µM"}
{"Structure (SMILES)": "CC(C)(C)c1cc[n+](COC[n+]2ccc(C(C)(C)C)cc2)cc1", "target": "ACHE (Homo sapiens, UniProt P22303)", "test": "enzyme activity, inhibitor", "measurement": "IC50", "value": "12 ± 2 µM"}
{"note": "Some of these lines once more:"}
{"Structure (SMILES)": "c1ccc2c(c1)ccc[n+]2CCCCCCCCCC[n+]1cccc2ccccc21", "target": "BCHE", "test": "enzyme activity, inhibitor", "measurement": "IC50", "value": "0.1 ± 0.02 µM"}
{"Structure (SMILES)": "CC(C)(C)O[C@@H]1C[C@@H](C(=O)N[C@H](Cc2ccccc2)C(=O)C(=O)NCc2ccc(Cl)cn2)N(C(=O)[C@@H](NC(=O)C2CCC(F)(F)CC2)C2CCCCC2)C1", "target": "TMPRSS2 (Homo sapiens, UniProt O15393, Q253D/R252D/R255K/S251D/S254D)", "test": "enzyme activity, inhibitor", "measurement": "IC50", "value": "> 500 µM"}
{"Structure (SMILES)": "NCCCC[C@H](NC(=O)OCC1c2ccccc2-c2ccccc21)C(=O)Nc1ccc2c(Cl)c(OCCBr)oc(=O)c2c1", "target": "hip1 (Mycobacterium tuberculosis, UniProt P9WHR3)", "test": "protease activity, inhibitor, chemiluminescence", "measurement": "IC50", "value": "0.27 µM"}
